Published values gathered from unrelated publications.
Parts stem from different laboratories: compare values within a part only. Positions count from the first letter of the parent shown.

Study 1
Target: Fragile X messenger ribonucleoprotein 1, C-terminal low-complexity region (Fmr1, Mus musculus, UniProt P35922)
Method: RNA Bind-n-Seq
Molecule type: RNA
Sample: in vitro
Tested at: 200 nM
Notes: whole 134-nt RNA, ends assumed
Together with: 150 mM KCl
Baseline: input library
Direction: higher = stronger binding
Constant ends, left off below: GGGAGUUCUACAGUCCGACGAUC … UGGAAUUCUCGGGUGUCAAGG
| Oligonucleotide | log2 enrichment |
| --- | --- |
| UCAAGUCCUGUGCUACACAUCGUAUGUACCGAAUCGGGAAGGGAAGGGAAGGGGAAAGUAUUAUGUUACGCCGUUCGGAUCUGCACUUCC | 0.734 |
| UGUGCUACACAUCGUAUGUACCGAAUCGGGGUUUUUUUGGGUUUUUUUGGGGUUUUUUUGGGGAAAGUAUUAUGUUACGCCGUUCGGAUC | 0.208 |
| ACCAUGCAGGUGGGCAUCUUUGGGAAGUGGGGCAAGGGGGGGAUACGGAGGGGGGUAACACUUUGGGAACAGGUGGUCCCAGGUCGUUUC | 0.601 |
| CACAGACAACACGCACCCACACAGACACAGAGGGAAGGGGUUGGGAUGGGGACAGGGUGCACAGCAAAGCGGGGUAGGACCCCAGCCCCU | 1.28 |
| CACAGACAACACGCACCCACACAGACACAGAGGGAAGGGGUUGGGAUGGGAACAGGGUGCACAGCAGGGCGGGGUAGGACCCCAGCCCCU | 1.34 |

Study 2
Target: CCNE1, cyclin fold, Cln2 fusion (human)
Method: yeast growth competition, sequencing
Sample: yeast
Notes: strong parent motif
Baseline: not given
Direction: higher = stronger binding
Parent: CDC25A docking peptide (human); PPHRRRLLFACSP
| Change | normalised enrichment score |
| --- | --- |
| L8Q | 0.678 |
| L8V | 2.46 |
| R5G | 0.808 |
| H3E | 0.548 |
| H3M | 0.712 |

Study 3
Target: Histone acetyltransferase KAT6A, both winged helices, GST fusion (KAT6A, Homo sapiens, UniProt Q92794, residues 1-181)
Method: protein binding microarray
Molecule type: double-stranded DNA, one strand shown
Sample: in vitro
Tested at: not given
Notes: 8-mer, flanks averaged, mean of 2 arrays, mostly near background
Baseline: not given
Direction: higher = stronger binding
Residues (chain): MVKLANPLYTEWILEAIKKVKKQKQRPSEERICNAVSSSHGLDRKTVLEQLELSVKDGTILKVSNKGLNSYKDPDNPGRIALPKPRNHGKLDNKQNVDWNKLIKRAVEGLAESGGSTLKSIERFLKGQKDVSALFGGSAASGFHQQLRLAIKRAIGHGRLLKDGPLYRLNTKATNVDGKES
| Oligonucleotide | E-score |
| --- | --- |
| CCGATACG | 0.203 |
| ATCCGGCC | 0.0924 |
| CTGATCAG | -0.0592 |
| CGCAGGGA | -0.0115 |
| CCTCGCGA | 0.154 |
| CGCAGATA | 0.0657 |
| AGGATCAC | -0.161 |

Further values, each from its own experiment
| Substance | target | assay | test system | setting | scale | measurement | value |
| --- | --- | --- | --- | --- | --- | --- | --- |
| PhoQ, residues 284 288 289 292 302 303 SLKLQV | PhoP, residues 12 14 15 18 19 AWHSL (Escherichia coli, UniProt P23836) | Sort-seq, measured: YFP reporter | E. coli | PhoQ-PhoP variant library, together with: 10 µM Mg2+ | baseline: high Mg2+ state, higher = stronger signaling | fold induction | 9.21 |

Excerpt of the above (study 3):
| Oligonucleotide | E-score |
| --- | --- |
| CGCAGATA | 0.0657 |
